Earlier results, collected from citations in different studies.
Compare with care: the assays were run in different laboratories. Numbers after ± are the reported error.
B1: HPV E7 protein; chain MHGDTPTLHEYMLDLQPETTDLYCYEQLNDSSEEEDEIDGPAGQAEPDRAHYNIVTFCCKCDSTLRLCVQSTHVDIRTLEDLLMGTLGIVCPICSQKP
Chain of UniProt P0DOF5 (whole entry, looked up): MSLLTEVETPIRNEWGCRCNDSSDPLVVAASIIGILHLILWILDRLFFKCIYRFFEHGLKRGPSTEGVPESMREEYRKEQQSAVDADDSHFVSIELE

`B1 (HPV E7 protein)` gave an affinity ratio of 20 fold (Rb pocket domain; baseline: full-length protein over LxCxE peptide).
With `GKGDFRI (sequence looked up)` the IC50 was 2.96 µg/mL (SARS-CoV-2; viral replication; peptide).
`M2 transmembrane domain (Influenza A virus, UniProt P0DOF5)` has a pKa of less than 5 (solid-state NMR, item: His37; lipid bilayers; tetramer, fourth protonation).
With `Plantazolicin` the MIC was 32 µg/mL (Bacillus anthracis; Sterne).
Under “cytopathic effect inhibition”, `tyrphostin AG 835` is recorded as 0.05% (SARS-CoV-2; viral replication; Vero E6; 20 µM).
The pKa of `MLEPFQILSISSFILSALHFMAWTIGHLNQIKR (BM2 transmembrane domain (Influenza B virus))` is reported as 5.9 (solid-state NMR, item: His27; peptide, VM+ membrane; wild-type tetramer, lower value).
The pKa of `M2 (Influenza A virus, UniProt P0DOF5)` is reported as less than 5 (NMR, item: His37; tetramer, lowest pKa, fourth protonation).
`Thimerosal` gave an IC50 of 1.69 ± 0.13 µM (SARS-CoV-2; cytopathic effect; Caco-2).

Repeated from above:
`M2 transmembrane domain (Influenza A virus, UniProt P0DOF5)` has a pKa of less than 5 (solid-state NMR, item: His37; lipid bilayers; tetramer, fourth protonation).
